Assay results of several laboratories.
Lines come from different studies, so protocols differ. ± marks the error that the study gave.
STAT1 SH2 domain: Signal transducer and activator of transcription 1-alpha/beta, SH2 domain (STAT1, Homo sapiens, UniProt P42224)
UniProt P42224, sequence (whole entry, looked up): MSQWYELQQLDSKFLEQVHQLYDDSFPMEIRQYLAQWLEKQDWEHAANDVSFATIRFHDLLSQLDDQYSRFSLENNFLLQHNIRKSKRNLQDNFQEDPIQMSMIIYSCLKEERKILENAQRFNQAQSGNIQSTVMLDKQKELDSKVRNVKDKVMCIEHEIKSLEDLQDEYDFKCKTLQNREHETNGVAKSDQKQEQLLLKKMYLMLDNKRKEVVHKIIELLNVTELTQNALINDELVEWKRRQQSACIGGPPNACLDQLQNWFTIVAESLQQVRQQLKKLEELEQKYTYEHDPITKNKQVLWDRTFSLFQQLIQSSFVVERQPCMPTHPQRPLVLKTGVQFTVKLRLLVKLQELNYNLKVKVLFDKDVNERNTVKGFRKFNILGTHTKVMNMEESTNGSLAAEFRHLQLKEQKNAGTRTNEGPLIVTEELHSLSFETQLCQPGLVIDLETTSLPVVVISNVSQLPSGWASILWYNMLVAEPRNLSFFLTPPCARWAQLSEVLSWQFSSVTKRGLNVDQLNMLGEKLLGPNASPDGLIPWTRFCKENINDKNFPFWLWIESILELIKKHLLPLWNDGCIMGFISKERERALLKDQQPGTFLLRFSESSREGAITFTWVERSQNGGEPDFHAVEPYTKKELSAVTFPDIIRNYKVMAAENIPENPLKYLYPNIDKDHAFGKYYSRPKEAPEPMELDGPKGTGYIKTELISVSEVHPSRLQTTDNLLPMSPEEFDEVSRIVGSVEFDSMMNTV
SH2D3A SH2 domain: SH2 domain-containing protein 3A, SH2 domain (SH2D3A, Homo sapiens, UniProt Q9BRG2)
UniProt Q9BRG2, sequence (whole entry, looked up): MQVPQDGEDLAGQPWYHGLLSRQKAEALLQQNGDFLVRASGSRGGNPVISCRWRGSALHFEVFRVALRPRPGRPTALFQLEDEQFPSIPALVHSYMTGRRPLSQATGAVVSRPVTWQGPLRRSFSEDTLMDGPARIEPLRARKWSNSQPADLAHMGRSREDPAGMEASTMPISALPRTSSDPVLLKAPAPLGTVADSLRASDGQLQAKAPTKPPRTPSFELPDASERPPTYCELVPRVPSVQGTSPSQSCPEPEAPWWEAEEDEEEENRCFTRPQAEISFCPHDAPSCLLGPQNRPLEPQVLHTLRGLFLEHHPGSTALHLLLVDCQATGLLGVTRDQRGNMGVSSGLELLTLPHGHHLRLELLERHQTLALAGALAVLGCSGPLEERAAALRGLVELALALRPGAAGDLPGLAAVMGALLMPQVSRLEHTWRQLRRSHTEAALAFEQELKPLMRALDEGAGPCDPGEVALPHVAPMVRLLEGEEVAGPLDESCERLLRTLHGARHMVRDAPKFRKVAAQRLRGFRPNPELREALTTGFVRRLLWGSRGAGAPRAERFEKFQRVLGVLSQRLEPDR
PIH1D1 residues 1-180: PIH1 domain-containing protein 1, residues 1-180 (PIH1D1, Homo sapiens, UniProt Q9NWS0)
UniProt Q9NWS0, sequence (1-180, looked up): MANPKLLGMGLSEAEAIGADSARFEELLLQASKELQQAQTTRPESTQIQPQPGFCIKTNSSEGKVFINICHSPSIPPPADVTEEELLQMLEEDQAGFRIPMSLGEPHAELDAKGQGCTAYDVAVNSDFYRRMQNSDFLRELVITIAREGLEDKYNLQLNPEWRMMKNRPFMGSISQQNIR
UniProt Q9Y5T5, sequence (whole entry, looked up): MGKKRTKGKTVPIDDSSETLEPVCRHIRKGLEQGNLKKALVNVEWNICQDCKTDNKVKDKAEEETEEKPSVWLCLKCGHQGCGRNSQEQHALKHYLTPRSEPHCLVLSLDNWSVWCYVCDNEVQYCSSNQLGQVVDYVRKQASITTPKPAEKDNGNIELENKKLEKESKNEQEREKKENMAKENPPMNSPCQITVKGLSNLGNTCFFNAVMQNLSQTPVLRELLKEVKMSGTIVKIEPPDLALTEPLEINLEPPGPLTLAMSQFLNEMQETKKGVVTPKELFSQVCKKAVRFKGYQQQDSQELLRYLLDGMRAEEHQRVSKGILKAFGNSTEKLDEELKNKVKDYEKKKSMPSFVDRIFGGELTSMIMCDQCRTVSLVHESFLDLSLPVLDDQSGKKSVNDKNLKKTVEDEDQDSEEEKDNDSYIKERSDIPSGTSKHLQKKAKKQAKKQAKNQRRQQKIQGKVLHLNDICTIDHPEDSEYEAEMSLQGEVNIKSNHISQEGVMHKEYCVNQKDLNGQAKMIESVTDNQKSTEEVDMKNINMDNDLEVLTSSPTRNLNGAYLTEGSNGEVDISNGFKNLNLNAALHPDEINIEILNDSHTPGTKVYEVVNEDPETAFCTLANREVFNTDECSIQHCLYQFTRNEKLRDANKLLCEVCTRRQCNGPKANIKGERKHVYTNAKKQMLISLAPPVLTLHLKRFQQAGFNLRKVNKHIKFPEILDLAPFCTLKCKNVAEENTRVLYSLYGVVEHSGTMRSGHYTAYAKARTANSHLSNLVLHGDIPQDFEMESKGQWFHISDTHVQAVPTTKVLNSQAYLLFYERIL
UniProt P00519, sequence (whole entry, looked up): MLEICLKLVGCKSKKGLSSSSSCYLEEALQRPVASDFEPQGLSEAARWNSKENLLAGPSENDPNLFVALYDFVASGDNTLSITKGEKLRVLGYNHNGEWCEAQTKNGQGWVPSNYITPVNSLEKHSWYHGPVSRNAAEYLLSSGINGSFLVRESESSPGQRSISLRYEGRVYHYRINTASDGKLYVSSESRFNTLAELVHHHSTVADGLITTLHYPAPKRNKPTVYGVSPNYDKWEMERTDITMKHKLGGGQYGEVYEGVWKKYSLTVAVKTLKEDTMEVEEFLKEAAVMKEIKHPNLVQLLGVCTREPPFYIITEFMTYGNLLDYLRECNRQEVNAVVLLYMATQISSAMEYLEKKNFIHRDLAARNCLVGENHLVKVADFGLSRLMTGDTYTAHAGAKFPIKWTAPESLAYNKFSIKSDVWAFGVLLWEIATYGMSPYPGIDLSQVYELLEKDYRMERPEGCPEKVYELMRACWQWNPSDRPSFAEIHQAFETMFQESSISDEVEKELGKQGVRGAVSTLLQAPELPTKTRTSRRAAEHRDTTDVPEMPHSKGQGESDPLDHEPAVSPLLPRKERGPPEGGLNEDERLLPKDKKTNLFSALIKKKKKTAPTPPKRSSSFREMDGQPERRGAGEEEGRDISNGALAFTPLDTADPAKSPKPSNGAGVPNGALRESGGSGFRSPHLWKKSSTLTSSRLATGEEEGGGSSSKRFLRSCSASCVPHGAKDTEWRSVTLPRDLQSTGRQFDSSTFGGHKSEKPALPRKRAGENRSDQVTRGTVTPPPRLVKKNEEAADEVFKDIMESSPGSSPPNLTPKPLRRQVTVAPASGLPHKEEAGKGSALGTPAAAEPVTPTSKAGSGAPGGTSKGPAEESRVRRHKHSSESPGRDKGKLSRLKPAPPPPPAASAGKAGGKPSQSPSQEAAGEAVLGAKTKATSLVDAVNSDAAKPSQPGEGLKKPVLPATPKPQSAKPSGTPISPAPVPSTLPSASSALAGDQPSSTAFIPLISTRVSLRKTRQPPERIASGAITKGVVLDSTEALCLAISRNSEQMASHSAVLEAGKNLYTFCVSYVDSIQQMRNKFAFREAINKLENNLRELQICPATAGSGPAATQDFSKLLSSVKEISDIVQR
UniProt Q92743, sequence (whole entry, looked up): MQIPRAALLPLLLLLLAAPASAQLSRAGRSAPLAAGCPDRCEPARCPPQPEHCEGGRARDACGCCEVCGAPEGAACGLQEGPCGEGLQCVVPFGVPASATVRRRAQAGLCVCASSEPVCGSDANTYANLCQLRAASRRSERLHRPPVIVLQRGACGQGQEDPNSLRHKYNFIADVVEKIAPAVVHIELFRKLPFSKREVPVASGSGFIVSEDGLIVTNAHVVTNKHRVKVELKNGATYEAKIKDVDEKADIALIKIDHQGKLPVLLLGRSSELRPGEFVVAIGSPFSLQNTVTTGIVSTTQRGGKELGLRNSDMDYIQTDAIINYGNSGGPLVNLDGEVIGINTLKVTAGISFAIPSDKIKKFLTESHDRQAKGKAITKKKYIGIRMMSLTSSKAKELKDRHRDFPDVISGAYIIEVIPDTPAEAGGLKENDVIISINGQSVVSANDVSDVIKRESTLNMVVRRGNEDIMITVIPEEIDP
UniProt P0DW61, sequence (whole entry, looked up): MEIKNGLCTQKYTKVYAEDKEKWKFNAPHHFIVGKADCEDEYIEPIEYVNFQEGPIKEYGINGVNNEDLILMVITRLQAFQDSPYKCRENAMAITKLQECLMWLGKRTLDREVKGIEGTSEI
UniProt Q9SCZ4, sequence (whole entry, looked up): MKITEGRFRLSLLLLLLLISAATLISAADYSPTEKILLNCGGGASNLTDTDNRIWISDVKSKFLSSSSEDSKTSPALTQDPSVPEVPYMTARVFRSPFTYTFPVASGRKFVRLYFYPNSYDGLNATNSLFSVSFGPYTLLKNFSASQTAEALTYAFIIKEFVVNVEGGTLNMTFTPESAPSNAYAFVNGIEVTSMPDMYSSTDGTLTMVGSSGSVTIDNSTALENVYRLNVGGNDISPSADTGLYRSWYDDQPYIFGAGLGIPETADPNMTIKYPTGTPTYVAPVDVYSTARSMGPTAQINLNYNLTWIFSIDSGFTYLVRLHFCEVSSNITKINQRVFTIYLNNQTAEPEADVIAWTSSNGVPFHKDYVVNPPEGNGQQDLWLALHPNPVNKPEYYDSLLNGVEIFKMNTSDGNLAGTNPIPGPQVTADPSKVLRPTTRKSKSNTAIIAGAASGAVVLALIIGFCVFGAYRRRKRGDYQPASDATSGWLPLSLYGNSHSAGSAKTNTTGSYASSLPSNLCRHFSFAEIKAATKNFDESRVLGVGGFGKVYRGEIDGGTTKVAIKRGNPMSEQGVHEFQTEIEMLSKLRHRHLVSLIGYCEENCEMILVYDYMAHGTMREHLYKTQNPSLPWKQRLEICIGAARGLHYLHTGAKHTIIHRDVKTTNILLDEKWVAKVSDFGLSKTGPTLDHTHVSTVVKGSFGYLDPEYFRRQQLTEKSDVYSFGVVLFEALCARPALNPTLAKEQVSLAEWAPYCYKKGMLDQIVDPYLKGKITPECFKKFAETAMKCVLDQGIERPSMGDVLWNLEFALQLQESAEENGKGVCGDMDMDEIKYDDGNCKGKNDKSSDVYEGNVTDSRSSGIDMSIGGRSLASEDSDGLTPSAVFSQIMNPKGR

| SMILES | target | assay | test system | conditions | Kd [nM] |
| --- | --- | --- | --- | --- | --- |
| CSCC[C@H](NC(=O)CNC(=O)[C@H](Cc1ccccc1)NC(=O)[C@H](CC(=O)O)NC(=O)CNC(=O)c1ccc2c(c1)C(=O)OC21c2ccc(N(C)C)cc2Oc2cc(N(C)C)ccc21)C(=O)N[C@@H](CO)C(=O)N[C@@H](CCCNC(=N)N)C(=O)N[C@@H](CC(=O)O)C(=O)N[C@H](C(=O)N[C@@H](Cc1ccc(OP(=O)(O)O)cc1)C(=O)N[C@@H](CO)C(=O)N[C@H](C(=O)N[C@@H](CC(=O)O)C(=O)N[C@@H](Cc1ccc(O)cc1)C(=O)N[C@@H](Cc1ccc(O)cc1)C(=O)N[C@@H](CCCNC(=N)N)C(=O)N[C@H](C(=O)N[C@@H](CC(=O)O)C(=O)O)C(C)C)[C@@H](C)O)C(C)C | STAT1 SH2 domain | binding |  |  | 1110 |
| O=C(O)CNC(=O)c1cccnc1 | Ubiquitin carboxyl-terminal hydrolase 16, ZnF-UBD domain (USP16, Homo sapiens, UniProt Q9Y5T5) |  |  |  | 198000 |
| CC[C@H](C)[C@H](NC(=O)[C@H](Cc1ccc(OP(=O)(O)O)cc1)NC(=O)[C@H](CCC(=O)O)NC(=O)[C@H](Cc1c[nH]cn1)NC(=O)CNC(=O)[C@H](CC(=O)O)NC(=O)[C@H](CO)NC(=O)[C@H](CO)NC(=O)[C@@H](NC(=O)[C@H](CO)NC(=O)[C@H](CCC(=O)O)NC(=O)c1ccc2c(c1)C(=O)OC21c2ccc(N(C)C)cc2Oc2cc(N(C)C)ccc21)C(C)C)C(=O)N[C@@H](Cc1ccc(O)cc1)C(=O)N[C@H](C(=O)N[C@@H](CC(=O)O)C(=O)N1CCC[C@H]1C(=O)N[C@@H](CCSC)C(=O)N[C@@H](CCC(N)=O)C(=O)N[C@@H](CC(=O)O)C(=O)O)C(C)C | SH2D3A SH2 domain | binding |  |  | 1960 |
| CC(C)C[C@H](NC(=O)[C@H](CC(=O)O)NC(=O)[C@H](CO)NC(=O)[C@H](CC(=O)O)NC(=O)[C@H](CO)NC(=O)CNC(=O)[C@H](C)NC(=O)[C@@H](N)Cc1ccc(O)cc1)C(=O)N[C@@H](CC(=O)O)C(=O)N[C@H](C(=O)N[C@@H](CC(=O)O)C(=O)N[C@@H](CC(=O)O)C(=O)N[C@@H](CCC(=O)O)C(=O)N[C@@H](Cc1ccccc1)C(=O)N[C@H](C(=O)N1CCC[C@H]1C(=O)N[C@@H](Cc1ccc(O)cc1)C(=O)O)C(C)C)[C@@H](C)OP(=O)(O)O | PIH1D1 residues 1-180 | ITC |  | pH 8.0, 20 °C, together with: phosphopeptide | 15000 ± 1500 |
| CC(C)[C@H](N)C(=O)N1CCC[C@H]1C(=O)N[C@@H](COP(=O)(O)O)C(=O)N[C@@H](CCC(N)=O)C(=O)N[C@@H](CO)C(=O)N[C@@H](Cc1ccccc1)C(=O)N1CCC[C@H]1C(=O)N[C@@H](C)C(=O)N1CCC[C@H]1C(=O)N[C@@H](CCCNC(=N)N)C(=O)N[C@@H](COP(=O)(O)O)C(=O)N[C@@H](CCC(N)=O)C(=O)N[C@@H](CCC(N)=O)C(=O)N[C@@H](CCCNC(=N)N)C(=O)N[C@@H](Cc1c[nH]c2ccccc12)C(=O)O | Serine/threonine-protein phosphatase 4 regulatory subunit 3A, EVH1 domain (Homo sapiens, UniProt Q6IN85) | isothermal titration calorimetry | sodium phosphate buffer | pH 7.5, together with: CYB5R4 peptide | 229000 ± 11000 |
| Nc1ncnc2c1ncn2[C@@H]1O[C@@H]2COP(=O)(O)O[C@H]3[C@@H](O)[C@H](n4cnc5c(N)ncnc54)O[C@@H]3COP(=O)(O)O[C@H]3[C@@H](O)[C@H](n4cnc5c(N)ncnc54)O[C@@H]3COP(=O)(O)O[C@H]2[C@H]1O | tad1 (Metaclostridioides mangenotii, UniProt P0DW61) |  |  |  | ~9.8 |
| CN(CC(=O)O)C(=N)NP(=O)(O)O | CKMT1A (Homo sapiens, UniProt P12532, E264A) | microscale thermophoresis |  | pH 7.0, E226A mutant, no substrate | 511000 ± 270000 |
| NC(=O)N/N=C/c1ccc([N+](=O)[O-])o1 | nfsB (Escherichia coli K-12, UniProt P38489, K14R) | binding | Escherichia coli |  | 38000 ± 2000 |
| CN1C2CCCC1CC(NC(=O)c1nn(C)c3ccccc13)C2 (stereo not shown) | Soluble acetylcholine receptor (Aplysia californica, UniProt Q8WSF8, K160T/Q74R/S111E/V159L/Y212F) | homologous radioligand competition |  |  | 298 ± 12 |
| Nc1ncnc2c1ncn2[C@@H]1O[C@H](COP(=O)(O)OP(=O)(O)OP(=O)(O)O)[C@@H](O)[C@H]1O | matB (Rhodopseudomonas palustris, UniProt Q6ND88, C106A/K488A/Q457C/R286C) | binding | Bicine buffer | pH 8.5 | 4400 ± 400 |
| Nc1ncnc2c1ncn2[C@@H]1O[C@H](COP(=O)(O)OP(=O)(O)OP(=O)(O)O)[C@@H](O)[C@H]1O | Receptor-like protein kinase FERONIA (FER, Arabidopsis thaliana, UniProt Q9SCZ4) | binding, SPR steady-state |  | kinase domain | 18400 |
| CC(C)C[C@H](NC(=O)[C@@H](NC(=O)[C@H](CO)NC(=O)[C@H](CO)NC(=O)[C@@H](NC(=O)[C@H](CC(=O)O)NC(=O)[C@H](CC(C)C)NC(=O)[C@@H]1CCCN1C(=O)[C@H](CO)NC(=O)c1ccc2c(c1)C(=O)OC21c2ccc(N(C)C)cc2Oc2cc(N(C)C)ccc21)[C@@H](C)O)C(C)C)C(=O)N[C@@H](Cc1ccc(OP(=O)(O)O)cc1)C(=O)N[C@H](C(=O)N[C@@H](C)C(=O)N[C@H](C(=O)N[C@@H](CCC(N)=O)C(=O)N1CCC[C@H]1C(=O)N[C@@H](CC(N)=O)C(=O)N[C@@H](CCC(=O)O)C(=O)N[C@@H](CC(=O)O)C(=O)O)C(C)C)[C@@H](C)O | SH2D3A SH2 domain | binding |  |  | 1170 |
| CC1=C(C)C(=O)C(C)=C(C)C1=O | Reaction center protein M chain, QA site (pufM, Cereibacter sphaeroides, UniProt P0C0Y9) | QA site binding | LDAO detergent solution | pH 7.8, 298 K, together with: 1 µM reaction centres | 800 |
| CC[C@H](C)[C@H](NC(=O)[C@H](CC(=O)O)NC(=O)[C@H](Cc1ccccc1)NC(=O)[C@@H](NC(=O)[C@H](CC(N)=O)NC(=O)[C@@H](NC(=O)[C@H](CC(=O)O)NC(=O)c1ccc2c(c1)C(=O)OC21c2ccc(N(C)C)cc2Oc2cc(N(C)C)ccc21)C(C)C)[C@@H](C)O)C(=O)N[C@H](C(=O)N[C@H](C(=O)N[C@@H](Cc1ccc(OP(=O)(O)O)cc1)C(=O)N[C@@H](CC(C)C)C(=O)N[C@@H](CC(C)C)C(=O)N[C@@H](CCC(N)=O)C(=O)NCC(=O)N[C@@H](CCCNC(=N)N)C(=O)N[C@@H](CCCNC(=N)N)C(=O)N[C@@H](CC(C)C)C(=O)N[C@@H](CC(=O)O)C(=O)O)C(C)C)[C@@H](C)O | STAT1 SH2 domain | binding |  |  | 101 |
| Nc1ncnc2c1ncn2[C@@H]1O[C@H](COP(=O)(O)OP(=O)(O)NP(=O)(O)O)[C@@H](O)[C@H]1O | N-acetylmannosamine kinase (nanK, Haemophilus influenzae, UniProt Q4QP43, T131V) | binding |  |  | 37000 ± 5500 |
| CC[C@H](C)[C@H](NC(=O)[C@H](CC(=O)O)NC(=O)[C@H](C)NC(=O)[C@H](Cc1ccc(O)cc1)NC(=O)[C@H](CCCCN)NC(=O)c1ccc2c(c1)C(=O)OC21c2ccc(N(C)C)cc2Oc2cc(N(C)C)ccc21)C(=O)N[C@@H](CCC(=O)O)C(=O)N[C@@H](CO)C(=O)N[C@@H](CO)C(=O)N[C@@H](CC(N)=O)C(=O)N[C@@H](Cc1ccc(OP(=O)(O)O)cc1)C(=O)N[C@@H](CCSC)C(=O)N[C@@H](C)C(=O)N1CCC[C@H]1C(=O)N[C@@H](Cc1ccc(O)cc1)C(=O)N[C@@H](CC(=O)O)C(=O)N[C@@H](CC(N)=O)C(=O)N[C@@H](Cc1ccc(O)cc1)C(=O)N[C@@H](CC(=O)O)C(=O)O | Tyrosine-protein kinase ABL1, SH2 domain (ABL1, Homo sapiens, UniProt P00519) | binding |  |  | 432 |
| CC(C)C[C@H](NC(=O)[C@H](CC(=O)O)NC(=O)[C@H](COP(=O)(O)O)NC(=O)[C@H](CC(=O)O)NC(=O)[C@H](CO)NC(=O)CNC(=O)[C@H](C)NC(=O)[C@@H](N)Cc1ccc(O)cc1)C(=O)N[C@@H](CC(=O)O)C(=O)N[C@@H](COP(=O)(O)O)C(=O)N[C@@H](CC(=O)O)C(=O)N[C@@H](CC(=O)O)C(=O)N[C@@H](CCC(=O)O)C(=O)N[C@@H](Cc1ccccc1)C(=O)N[C@H](C(=O)N1CCC[C@H]1C(=O)N[C@@H](Cc1ccc(O)cc1)C(N)=O)C(C)C | PIH1D1 residues 1-180 | ITC |  | pH 8.0, 20 °C, together with: phosphopeptide | 1500 ± 200 |
| CSCC[C@H](NC(=O)[C@H](Cc1ccc(OP(=O)(O)O)cc1)NC(=O)CNC(=O)CNC(=O)[C@H](CC(=O)O)NC(=O)[C@H](CO)NC(=O)[C@H](CCC(=O)O)NC(=O)CNC(=O)[C@@H](NC(=O)[C@H](CC(C)C)NC(=O)[C@H](CO)NC(=O)c1ccc2c(c1)C(=O)OC21c2ccc(N(C)C)cc2Oc2cc(N(C)C)ccc21)[C@@H](C)O)C(=O)N[C@@H](CC(=O)O)C(=O)N[C@@H](CCSC)C(=O)N[C@@H](CO)C(=O)N[C@@H](CCCCN)C(=O)N[C@@H](CC(=O)O)C(=O)N[C@@H](CCC(=O)O)C(=O)N[C@@H](CC(=O)O)C(=O)O | Ras GTPase-activating protein 1, SH2 domains (RASA1, Homo sapiens, UniProt P20936) | binding |  |  | 103 |
| CC(C)C[C@H](NC(=O)[C@H](CO)NC(=O)[C@H](CCC(=O)O)NC(=O)[C@@H](NC(=O)[C@H](CC(C)C)NC(=O)[C@H](CC(=O)O)NC(=O)[C@H](CC(=O)O)NC(=O)[C@H](CC(=O)O)NC(=O)[C@@H](NC(=O)[C@H](Cc1c[nH]c2ccccc12)NC(=O)[C@@H](N)CCC(=O)O)[C@@H](C)O)C(C)C)C(=O)O | Serine protease HTRA1, PDZ domain (Homo sapiens, UniProt Q92743) | isothermal titration calorimetry | isolated PDZ domain | pH 8.0 | 37300 |

For quick reference, copied from above:
| SMILES | target | assay | test system | conditions | Kd [nM] |
| --- | --- | --- | --- | --- | --- |
| CC(C)C[C@H](NC(=O)[C@H](CO)NC(=O)[C@H](CCC(=O)O)NC(=O)[C@@H](NC(=O)[C@H](CC(C)C)NC(=O)[C@H](CC(=O)O)NC(=O)[C@H](CC(=O)O)NC(=O)[C@H](CC(=O)O)NC(=O)[C@@H](NC(=O)[C@H](Cc1c[nH]c2ccccc12)NC(=O)[C@@H](N)CCC(=O)O)[C@@H](C)O)C(C)C)C(=O)O | Serine protease HTRA1, PDZ domain (Homo sapiens, UniProt Q92743) | isothermal titration calorimetry | isolated PDZ domain | pH 8.0 | 37300 |
| CC(C)C[C@H](NC(=O)[C@@H](NC(=O)[C@H](CO)NC(=O)[C@H](CO)NC(=O)[C@@H](NC(=O)[C@H](CC(=O)O)NC(=O)[C@H](CC(C)C)NC(=O)[C@@H]1CCCN1C(=O)[C@H](CO)NC(=O)c1ccc2c(c1)C(=O)OC21c2ccc(N(C)C)cc2Oc2cc(N(C)C)ccc21)[C@@H](C)O)C(C)C)C(=O)N[C@@H](Cc1ccc(OP(=O)(O)O)cc1)C(=O)N[C@H](C(=O)N[C@@H](C)C(=O)N[C@H](C(=O)N[C@@H](CCC(N)=O)C(=O)N1CCC[C@H]1C(=O)N[C@@H](CC(N)=O)C(=O)N[C@@H](CCC(=O)O)C(=O)N[C@@H](CC(=O)O)C(=O)O)C(C)C)[C@@H](C)O | SH2D3A SH2 domain | binding |  |  | 1170 |
| O=C(O)CNC(=O)c1cccnc1 | Ubiquitin carboxyl-terminal hydrolase 16, ZnF-UBD domain (USP16, Homo sapiens, UniProt Q9Y5T5) |  |  |  | 198000 |
